Assay results gathered from unrelated publications.
Parts stem from different laboratories: compare values within a part only. Changes are numbered by the printed parent chain.

Series 1 — method: DHFR PCA, deep sequencing; matrix: yeast; with: (+)-ABA 2500 µM; relative to: wild-type fitted maximum; reading: higher = stronger binding
Target: ABI1, truncated, D143A, DHFR fusion (Arabidopsis thaliana)
Notes: methotrexate growth selection, single substitutions
Starting sequence: PYL1, truncated, DHFR fusion (Arabidopsis thaliana); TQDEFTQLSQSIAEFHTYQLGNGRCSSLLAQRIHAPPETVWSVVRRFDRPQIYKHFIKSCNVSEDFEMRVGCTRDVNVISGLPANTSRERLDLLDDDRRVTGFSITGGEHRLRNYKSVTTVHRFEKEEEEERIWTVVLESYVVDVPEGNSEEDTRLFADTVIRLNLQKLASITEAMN; partner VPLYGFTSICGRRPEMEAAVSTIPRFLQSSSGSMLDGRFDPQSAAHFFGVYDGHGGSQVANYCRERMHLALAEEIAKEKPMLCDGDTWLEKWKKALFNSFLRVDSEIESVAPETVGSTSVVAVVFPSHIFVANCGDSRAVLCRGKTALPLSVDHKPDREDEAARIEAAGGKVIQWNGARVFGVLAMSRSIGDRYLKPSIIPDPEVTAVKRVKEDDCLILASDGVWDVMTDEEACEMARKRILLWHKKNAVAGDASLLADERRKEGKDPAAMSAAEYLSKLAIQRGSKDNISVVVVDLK
| Change | relative binding score |
| --- | --- |
| N77M | 99.3% |
| Q19L | 97.5% |
| T160R | 93.7% |
| D75W | 95.8% |
| T135E | 3.65% |
| E64L | 93.5% |
| C72N | 94.4% |
| R69F | 90.1% |
| L20K | 97.6% |
| G102S | 104% |
| D3R | 98% |
| F15N | 92.6% |
| V100I | 105% |

Series 2 — method: RNA Bind-n-Seq; molecule type: RNA; matrix: in vitro; concentration: not given; relative to: input RNA pool; reading: higher = stronger binding
Target: RING finger protein unkempt homolog, zinc fingers 1-6, GST-SBP tag (UNK, Homo sapiens, UniProt Q9C0B0, residues 30-357)
Sequence of UniProt Q9C0B0 (30-357, looked up): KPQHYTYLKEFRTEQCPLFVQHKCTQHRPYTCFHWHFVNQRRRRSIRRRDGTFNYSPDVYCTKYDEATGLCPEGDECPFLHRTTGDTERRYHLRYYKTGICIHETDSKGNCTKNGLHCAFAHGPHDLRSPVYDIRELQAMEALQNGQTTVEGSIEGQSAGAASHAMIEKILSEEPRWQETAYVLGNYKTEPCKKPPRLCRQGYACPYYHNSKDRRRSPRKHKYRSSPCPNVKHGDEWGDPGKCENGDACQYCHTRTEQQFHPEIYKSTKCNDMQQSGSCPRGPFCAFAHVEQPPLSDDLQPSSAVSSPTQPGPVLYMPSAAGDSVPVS
Notes: RNA with constant flanks, human and mouse sites, ends assumed
Constant ends, left off below: GGGAGUUCUACAGUCCGACGAUC … CAACAGAGGAUUGAGCAUCA
| Sequence | bound/input enrichment [ratio] |
| --- | --- |
| UAUUGUACCUCUACUCUGCGUCACUUCUUGCCUCUGUUAGAAAAAAGUCAAGGAGAAGAUGUAGAAGAUGACCACAGAGCAGAACUGCUAAAACAGCUGGGAGACUACAGGUUCUCUGGA | 0.23 |
| UCUCUGAAGUUGAGAAUUAACAAUGGUAAAACUGUAUUUUUCCUUUGACCCCACUCUCUCCCGUAUAUACAUUUUUUUUUCUCUCUCUCUCAAAUUCUUAAGUAUGGGCUUGCCCGUCAU | 2.02 |
| UCUAUUGUGAUUGCAUAUAACUACUGCUUUUCCACCUGCCUUGGCCAUGUGGAGAACUUGGGAAAGUAUGAUGAGUUCAAAUUUGGCUGUACCUCUCUGAGAGUACCUCCAGAUUUACUU | 0.103 |
| CCAACUUAUGAGACUGGAUCUCUUUCCUUUGCAGGAGACGAGAGAAUAUGAAGUUUCCAUCUAGGUGGGAGCAGCCUGGGGAUGCACACGCAGUCCUGCAUCGCAGGCCAGCGGCAGGGC | 0.125 |
| AAGAAAGAAAUGCAGCCUACACACCCAAUUCGUCUUGGUCUGGCACUAAAUUUCUCAGUCUUUUACUAUGAGAUUCUAAACUCUCCUGAAAAGGCCUGUAGCCUGGCAAAAACGGCAUUU | 0.205 |
| CAGAGCAGGGAGGAUAGUGACCCUGAGUACCGGGCCAGCAAGUCCAAGCCACUGACCCUACUAGAAUACAACCUUACUAUGGAUACCGCAAAAUUAUUCAUGUCCUGUCUCCACGCCUGG | 0.506 |
| GUGGUUGGGGUGUGAGUGGGCGUUUUCUUAAUGAUAUGCUGCUAGGAUUUCAUGGGCAGCAAUAGCCUAGAAGUCUAUGAUCUAGACUCCAGAUUCCAGAGGGACCUUAAGGUUCCCUUC | 0.249 |
| CCAGCUACAACCGUGGUCAGAACUUUGAAUGACAGAAGUAGUAUUGUAAUGGGAGAACCUAUUUCACAGUCAUCAUCUAAUUCUCAGUGAUUUUUUUUUUUAAAGAGAAUUCUAGAAUUC | 0.29 |
| AGAAAUUUUUGUAUUUUUCUUUUACAGAUUUUAACUACGAUGAUUUUUUUCUAAAUUAAGUAGGUCAGGUUGUCAAAGUCAGUGCAAUAGUAAUACAACUUCCUUUUUAAGAAAACCCAA | 0.497 |
| AUGGCCCAUGUGCUCUGUAACAGAGCCAGACUGGUUUCCUAUCUCCCAGGAUUUUGUUCUUUAGUGAAAAGAGUCAUCAAUCCAAGAGCCUUUUCAACUGCAGGAUCUUCAGGUUCUGAU | 0.108 |
| AAGGACUCAGGCAGUGAUCUCUCUCACCGUCCCAAGCGACGUCGAUUUCACGAAAGCUACAAUUUCAACAUGAAGUGUCCUACGCCGGGCUGCAACUCUCUAGGACAUCUUACAGGAAAG | 0.957 |

Series 3 — method: RNA Bind-n-Seq; molecule type: RNA; matrix: in vitro; concentration: 365 nM; relative to: no-protein control; reading: higher = stronger binding
Target: RNA binding protein fox-1 homolog 2, RRM domain, GST-SBP tag (RBFOX2, Homo sapiens, UniProt O43251-10, residues 100-194)
Notes: natural RNA segment, single round, ends assumed
Constant ends, left off below: GGGAGUUCUACAGUCCGACGAUC … UGGAAUUCUCGGGUGCCAA
| Sequence | RBNS enrichment (R) |
| --- | --- |
| UAUAUGGGUAGAUUUUAUUAUGUACACAAAGACAAAUGGACCCUGAGAAAUGUAUGCGUUUGUAAACUUGCCAUGGGUCCGAAUAUUUUCAAGCCAUGUAAUCCAUUAAU | 0.444 |
| CAUCUUGGCUGCAAUUCUGGACUCCCUACAGCAAAGGGAGAGUUGAGAUUCAAGUCCCACCCGGCUCUUUUGGAUGAACCGCUGAGAGCCUCAGGACUGUUUUUGGGGGG | 0.861 |
| AACCACUUUGAGCAAGGCUGCCUUCUUGUAGAUGACUUGCUGUUCUUUAUGACAGGGAUCAGUGGCAUUUGUUUCCUAGCAGUAUUUAGCACCUUUUUGCCACCUUGGUG | 0.39 |
| UAUGACAGAGGUUAGAGUCAGUACUGUUGGCGUAAGGAUUUCAUCUUUGGAACACAGGGUAUGCCUCUGGUUAAUAAGCUAAGCAAUAAAAUUACACGAAAUAUAAAUGU | 0.624 |
| GUGGUAAGGGUUGGGCCCCCAGCCUGUAGGGAACUUUCUGGACUCCCACUCUUUGAAUCGAUAUAGGCAUUUGGUCUCACUACUUGACCAUUCUCACCCUGUGAAACGUC | 1.57 |
| UAUGCCUAAGUUAACAGUGGAUAAAAGACUUUUCUGUAAACAACUCCAGUAAUAAAUAUCAUGAACUAUAUGGUUUUUGUAUUCAUUUGUUUCUGAAAAAUGUGCAUUAU | 0.667 |
| UACAAACAUUUGUAUGACGUGAAUAGUUGAUGGCAUUUUUUUGUCAUGAAAAAAAUAAUGUAAAUCACAGACUUUUGCCAAAGCUCUUAUUUUUUUUCCUAAAUCUCUCC | 0.833 |
| UUAUUUUAGUCUUUUAUAAAUAAACUGAGUUUUUGAUAGGGUAACUUAUGGAUUGACUAGAUUCAUAUCACUUUCUCCUCUAAAAUAUUGUAGUAUUUUCUUAUAGUUAU | 0.74 |
| CUUUUCGAAGCUGUUAAUUUUUCUUAGUGUUGUGGACACUGCAGACUUGUCCAGUGCUCCCACGGCCUGUACGGACACUGUGGAAGGCCUCCCUCUGUCGGCUUUUUGCC | 0.507 |
| UCACCACCUGGUCCUAAUUUAUGUGCAGGAGCACGACACCACUUGUCUCCAGCGCCACACAUCCGAGGUGUACUUUGUGUGCAGAAUGUGUCUUCCUUCUGGCCUGUAAU | 0.371 |
| AUUAGGAGAUUGACAGAUGAUGUUGUCUGACAGGUGGUUGGCUGUCCCAGAGAGAGAUAGAGACUCCCCAGCAUGUAGGGGGCAGAGUCACAAGAGUGCUGGCCUGGGAG | 27 |
| UUGCGUUUGAGCUCUCCAGGAUUUUACAUUUUUGGGUAACCUCAGUGAUUCCCAUUGGUGUAGGAAAUGAGACCCUCUCUGAAGCUGAGGAGAGCACGUUGAUCUGAACU | 0.544 |

Series 4 — method: protein-binding microarray; molecule type: double-stranded DNA, one strand shown; matrix: in vitro; concentration: 2540 nM top; notes: 60-bp whole probe; with: salmon DNA 0.4 mg/ml; relative to: random background probes; reading: higher = stronger binding; constant ends, left off below: GCCTAGCAC … GTCTTGATTCGCTTGACGCTGCTG
Target: Interferon regulatory factor 3, full length, phosphomimetic (IRF3, Homo sapiens, UniProt Q14653, residues 1-427, S386D/S396D/S398D/S402D/T404D/S405D)
Construct (chain): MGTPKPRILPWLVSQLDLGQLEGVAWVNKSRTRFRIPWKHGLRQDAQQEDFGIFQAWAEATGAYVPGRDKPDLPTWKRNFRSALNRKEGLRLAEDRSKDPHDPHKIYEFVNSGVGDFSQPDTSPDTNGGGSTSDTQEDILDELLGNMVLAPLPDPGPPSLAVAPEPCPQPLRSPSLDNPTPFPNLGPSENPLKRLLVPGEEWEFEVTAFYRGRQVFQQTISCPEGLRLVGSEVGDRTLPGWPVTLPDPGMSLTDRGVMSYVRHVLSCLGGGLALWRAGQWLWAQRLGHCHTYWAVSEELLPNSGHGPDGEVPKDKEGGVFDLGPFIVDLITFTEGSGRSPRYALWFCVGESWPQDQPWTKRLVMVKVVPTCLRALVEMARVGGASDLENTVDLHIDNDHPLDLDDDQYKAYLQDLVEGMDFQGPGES
| Sequence | fitted relative affinity |
| --- | --- |
| GACGGTTACGACTATCGGGACGTGCTA | 0.224 z-score |
| ATAGGACTGCTTCTCCTTTAGTGCTAG | -0.0931 z-score |
| TTAGGATTCCTACTGCTTTAGTGCTAG | 1.02 z-score |
| TAAGGTATCGGTCTCGGTTAGTGCTAG | 4.53 z-score |
| CTAGAACTGAGTATCGATTAGTGCTAG | 0.332 z-score |
| GACGCTCTCAGTATCGAGACGTGCTAG | 0.482 z-score |
| TGAGTGAAAGGCCCATACATGTGCTAG | -0.681 z-score |
| GACGGTCTCGGTTTCGAGACGTGCTAG | 3.63 z-score |
| GACGGTATCGGGTTGCGGGACGTGCTA | 1.88 z-score |
| GACGACCTCAGTATCGAGACGTGCTAG | -0.0645 z-score |
| GACGATTTCAGTTTCGAGACGTGCTAG | 4.97 z-score |
| GACGGTATCGGTTCCGGGACGTGCTAG | 6.35 z-score |
| TTAGATTTCGGGAATCGATTAGTGCTA | 0.731 z-score |
| GGTGCTGTTTACATAGTTCTGTGCTAG | 3.63 z-score |
| TTAGGTTTCGGCTTTCGGTTAGTGCTA | 3.87 z-score |
| TTTCTTTTGCTTGTTCTTAGCGTGCTA | 2.3 z-score |
| TTAGGTTTCGTCTATCGGTTAGTGCTA | 2.39 z-score |
| TCAAATTAGTGTTTTGCACTGTGCTAG | 0.0921 z-score |
| GACGGTATCCTACGGCTGACGTGCTAG | 0.672 z-score |
| GACGGTTTCGGTCTCAGGACGTGCTAG | 8.21 z-score |
| TCACATCTGGGTATTTTACTGTGCTAG | 0.388 z-score |
| TCAAGGTTCTCTTTTATACTGTGCTAG | 1.39 z-score |
| GACGATATCAGTTTCGAGGCGTGCTAG | 2.97 z-score |
| TTAGTTTTCAGTATCGATTAGTGCTAG | 3.37 z-score |

Series 5 — target: CCND1, cyclin fold, Cln2 fusion (human); method: yeast growth competition, sequencing; matrix: yeast; notes: strong parent motif; relative to: not given; reading: higher = stronger binding
Starting sequence: RBL1 docking peptide (human); GSAKRRLFGEDPP
| Change | normalised enrichment score |
| --- | --- |
| GSAKPRLFGEDPP [R5P] | 0.996 |
| GSAKRRQFGEDPP [L7Q] | 0.795 |
| GSAKRRLFGADPP [E10A] | 0.964 |
| GSADRRLFGEDPP [K4D] | 1.23 |
| GSAKRRLFAEDPP [G9A] | 3.83 |
| GSAKRVLFGEDPP [R6V] | 1.76 |
| GSAKRYLFGEDPP [R6Y] | 0.818 |
| GSAKRRLFGCDPP [E10C] | 0.839 |
| GSAKRRLFGVDPP [E10V] | 0.563 |
| GSRKRRLFGEDPP [A3R] | 0.245 |
| GSAKRRIFGEDPP [L7I] | 1.78 |
| GSQKRRLFGEDPP [A3Q] | 0.185 |
| GSSKRRLFGEDPP [A3S] | 1.08 |
| GSAKRRPFGEDPP [L7P] | 0.228 |

Excerpt of the above (series 1):
| Change | relative binding score |
| --- | --- |
| D75W | 95.8% |
| T135E | 3.65% |
| E64L | 93.5% |
| C72N | 94.4% |
| R69F | 90.1% |
| L20K | 97.6% |
